Measured values collected from several papers.
Every numbered part comes from another study and shows a few of its results, in no order. “And” joins repeats or separate records; there may be more than shown.
Chain of UniProt P21918 (whole entry, looked up): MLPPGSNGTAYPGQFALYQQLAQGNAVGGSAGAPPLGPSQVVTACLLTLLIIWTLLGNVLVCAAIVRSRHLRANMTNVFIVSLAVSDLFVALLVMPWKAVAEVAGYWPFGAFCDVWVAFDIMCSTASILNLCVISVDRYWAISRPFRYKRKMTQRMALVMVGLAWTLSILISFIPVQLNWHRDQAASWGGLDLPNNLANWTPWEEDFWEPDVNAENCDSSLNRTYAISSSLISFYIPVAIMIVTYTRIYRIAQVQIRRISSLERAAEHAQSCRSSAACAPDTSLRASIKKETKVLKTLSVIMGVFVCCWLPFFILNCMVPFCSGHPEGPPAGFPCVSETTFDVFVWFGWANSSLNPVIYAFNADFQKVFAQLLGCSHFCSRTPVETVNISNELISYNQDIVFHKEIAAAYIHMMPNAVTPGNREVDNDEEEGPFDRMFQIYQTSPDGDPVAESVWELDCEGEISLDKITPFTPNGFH

Sample 1
Target: DNA polymerase theta, ATPase domain (POLQ, Homo sapiens, UniProt O75417)
Chain of UniProt O75417 (whole entry, unmodified, looked up): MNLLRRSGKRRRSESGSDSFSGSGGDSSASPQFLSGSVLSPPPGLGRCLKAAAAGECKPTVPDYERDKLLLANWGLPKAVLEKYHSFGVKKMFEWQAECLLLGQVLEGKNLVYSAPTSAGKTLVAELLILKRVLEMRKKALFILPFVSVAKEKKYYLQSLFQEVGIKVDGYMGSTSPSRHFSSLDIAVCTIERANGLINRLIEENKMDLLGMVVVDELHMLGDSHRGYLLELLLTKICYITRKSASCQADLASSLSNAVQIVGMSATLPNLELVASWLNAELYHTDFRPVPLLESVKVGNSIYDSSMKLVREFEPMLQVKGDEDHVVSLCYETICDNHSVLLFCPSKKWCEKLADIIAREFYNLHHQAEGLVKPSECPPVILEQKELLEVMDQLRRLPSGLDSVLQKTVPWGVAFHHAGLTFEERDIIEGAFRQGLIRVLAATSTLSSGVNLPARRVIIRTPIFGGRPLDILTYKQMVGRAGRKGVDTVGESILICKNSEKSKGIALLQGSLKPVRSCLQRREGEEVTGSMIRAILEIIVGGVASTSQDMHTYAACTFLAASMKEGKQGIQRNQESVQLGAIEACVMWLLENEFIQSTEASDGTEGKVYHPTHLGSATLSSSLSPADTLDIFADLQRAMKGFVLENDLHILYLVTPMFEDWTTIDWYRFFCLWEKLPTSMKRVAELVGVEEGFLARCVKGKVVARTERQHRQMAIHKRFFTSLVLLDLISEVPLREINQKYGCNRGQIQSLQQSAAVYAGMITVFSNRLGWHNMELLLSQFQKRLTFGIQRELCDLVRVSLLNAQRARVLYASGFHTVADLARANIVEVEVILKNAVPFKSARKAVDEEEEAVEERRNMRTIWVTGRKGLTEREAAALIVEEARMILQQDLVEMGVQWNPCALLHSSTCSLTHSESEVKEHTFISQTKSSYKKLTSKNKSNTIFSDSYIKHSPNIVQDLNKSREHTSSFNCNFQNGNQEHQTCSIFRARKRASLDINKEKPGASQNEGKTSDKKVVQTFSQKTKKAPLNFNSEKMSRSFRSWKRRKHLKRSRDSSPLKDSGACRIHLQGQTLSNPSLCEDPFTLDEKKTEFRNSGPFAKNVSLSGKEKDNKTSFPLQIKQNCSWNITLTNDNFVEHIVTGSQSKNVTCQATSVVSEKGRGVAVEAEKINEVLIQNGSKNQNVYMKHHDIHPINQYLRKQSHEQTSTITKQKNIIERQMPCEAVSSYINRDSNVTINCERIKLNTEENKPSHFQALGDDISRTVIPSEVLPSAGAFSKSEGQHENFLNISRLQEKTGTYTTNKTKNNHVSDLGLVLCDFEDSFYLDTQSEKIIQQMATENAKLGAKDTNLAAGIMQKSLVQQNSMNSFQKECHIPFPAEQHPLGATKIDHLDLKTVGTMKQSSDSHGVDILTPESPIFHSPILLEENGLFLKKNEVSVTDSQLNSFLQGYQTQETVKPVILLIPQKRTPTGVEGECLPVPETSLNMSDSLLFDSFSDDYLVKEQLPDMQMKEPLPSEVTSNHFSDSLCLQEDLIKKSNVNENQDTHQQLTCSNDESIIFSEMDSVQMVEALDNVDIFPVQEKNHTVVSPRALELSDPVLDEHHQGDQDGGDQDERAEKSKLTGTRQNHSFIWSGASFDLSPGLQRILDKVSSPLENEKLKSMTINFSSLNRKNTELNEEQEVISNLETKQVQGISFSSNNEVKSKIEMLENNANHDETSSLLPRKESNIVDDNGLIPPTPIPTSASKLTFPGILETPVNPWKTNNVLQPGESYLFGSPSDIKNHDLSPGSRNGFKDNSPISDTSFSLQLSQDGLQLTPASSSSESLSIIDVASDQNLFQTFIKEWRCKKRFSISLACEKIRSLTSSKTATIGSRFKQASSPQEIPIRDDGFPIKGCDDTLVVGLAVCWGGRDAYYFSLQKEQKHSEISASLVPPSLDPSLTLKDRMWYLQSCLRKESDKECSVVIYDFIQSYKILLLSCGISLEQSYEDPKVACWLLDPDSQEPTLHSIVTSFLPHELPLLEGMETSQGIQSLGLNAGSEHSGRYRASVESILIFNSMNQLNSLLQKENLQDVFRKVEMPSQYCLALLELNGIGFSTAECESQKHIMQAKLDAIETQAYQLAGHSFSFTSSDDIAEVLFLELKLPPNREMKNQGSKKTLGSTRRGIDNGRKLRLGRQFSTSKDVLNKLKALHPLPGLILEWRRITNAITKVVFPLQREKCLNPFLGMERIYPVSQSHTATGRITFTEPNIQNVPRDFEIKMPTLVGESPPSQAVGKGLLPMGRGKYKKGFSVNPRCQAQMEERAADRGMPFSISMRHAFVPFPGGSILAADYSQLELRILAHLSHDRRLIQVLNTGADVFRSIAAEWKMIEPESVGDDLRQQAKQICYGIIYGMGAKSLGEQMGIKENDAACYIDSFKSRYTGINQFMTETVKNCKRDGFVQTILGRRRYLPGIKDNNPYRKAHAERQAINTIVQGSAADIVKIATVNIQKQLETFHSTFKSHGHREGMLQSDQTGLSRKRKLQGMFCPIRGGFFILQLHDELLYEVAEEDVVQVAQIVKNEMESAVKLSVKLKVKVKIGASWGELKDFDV
Read-out: enzyme activity
Action: inhibitor
Concentration: 77 µM
Reference: untreated
Endpoint: remaining activity
CC[C@H]1OC(=O)C[C@@H](O)[C@H](C)[C@@H](O[C@@H]2O[C@H](C)[C@@H](O)[C@H](N(C)C)[C@H]2O)[C@@H](CCN2C[C@H](C)C[C@H](C)C2)C[C@@H](C)C(=O)/C=C/C(C)=C/[C@@H]1CO[C@@H]1O[C@H](C)[C@@H](O)[C@@H](OC)[C@H]1OC: 103%
COc1ccc(C2=N[C@@H](c3ccc(Cl)cc3)[C@@H](c3ccc(Cl)cc3)N2C(=O)N2CCNC(=O)C2)c(OC(C)C)c1: 96.7% and 102%
OC[C@@H](O)[C@@H](O)[C@@H](O)CO: 94.5%
NC(=O)c1ccc[n+]([C@@H]2O[C@H](COP(=O)([O-])OP(=O)(O)OC[C@H]3O[C@@H](n4cnc5c(N)ncnc54)[C@H](O)[C@@H]3O)[C@@H](O)[C@H]2O)c1: 77.8%
c1ccc2c(c1)CCCc1cc(NCCN3CCOCC3)nnc1-2: 96.2%
CCC1NC(=O)c2cc(S(N)(=O)=O)c(Cl)cc2N1 (stereo not shown): 100%
Nc1ccc(S(=O)(=O)Nc2cnc3ccccc3n2)cc1: 104%
O=C(O)c1cc(/N=N/c2ccc(O)c(C(=O)O)c2)ccc1O: 77.9%

Sample 2
Cell line: HaCaT
Concentration: 100 µM
Time: 36 h
Endpoint: viability
Cc1cc(C(C)(C)C)c(O)c(C)c1CC1=NCCN1: 47.8%
CCCCOc1ccc(C(=O)CCN2CCCCC2)cc1: 26.9%
Nc1ncnc2c1ncn2[C@@H]1O[C@H](COP(=O)(O)O)[C@@H](O)[C@H]1O: 92.3%
CCNC(=O)[C@@H]1CCCN1C(=O)[C@H](CCCNC(=N)N)NC(=O)[C@H](CC(C)C)NC(=O)[C@@H](C)NC(=O)[C@H](Cc1ccc(O)cc1)NC(=O)[C@H](CO)NC(=O)[C@H](Cc1c[nH]c2ccccc12)NC(=O)[C@H](Cc1c[nH]cn1)NC(=O)[C@@H]1CCC(=O)N1: 82.8%
CC(C)(C)C(=O)C(Oc1ccc(Cl)cc1)n1ccnc1 (stereo not shown): 75.2%
CC1CC(OC(=O)C(O)c2ccccc2)CC(C)(C)C1 (stereo not shown): 8.78%
O=C(O)CC(O)(CC(=O)O)C(=O)O: 85.1%
CC1(C)O[C@@H]2C[C@H]3[C@@H]4CCC5=CC(=O)C=C[C@]5(C)[C@@]4(F)[C@@H](O)C[C@]3(C)[C@]2(C(=O)CO)O1: 92.3%

Sample 3
SMILES: COc1cc(C(=O)N2CCC(N3CCN(C)CC3)CC2)ccc1Nc1ncc2c(n1)N(C)c1ccccc1C(=O)N2C
Endpoint: inhibition
RSK3 domain 1 (mouse); probe labelling, inhibitor, KiNativ ActivX ADP probe; mouse brain lysate; 1 µM, activation loop peptide: -9.3%
LYN (human); probe labelling, KiNativ ATP probe; human PBMC lysate; concentration not given, LYS1 labelled site: -1.2%
CSK (mouse); probe labelling, KiNativ ADP probe; mouse brain lysate; 0.1 µM, LYS1 labelled site: 2%
ABL and ARG (mouse); probe labelling, KiNativ, item: Lys1 site peptide; brain tissue lysate (mouse); 1 µM, together with: ADP acyl-phosphate probe: -7%
SYK (mouse); KiNativ ADP probe; mouse brain tissue; 0.1 µM, probe site Lys1: 5.5%
PDK1 (mouse); probe labelling, KiNativ ADP probe; mouse brain lysate; 0.1 µM, LYS1 labelled site: 17.2%
SLK mouse; KiNativ profiling; mouse brain lysate; 1 µM, LYS1 site, together with: ADP acyl phosphate probe: -13.3%
RSK1 domain 2 (mouse); probe labelling, inhibitor, KiNativ ActivX ADP probe; mouse brain lysate; 1 µM, Lys1 site peptide: 34.5%

Other studies, line by line
CCC(=O)N[C@@H]1CC[C@H](C(=O)N(C)c2ccc(-c3nc4ccccc4o3)cc2)C1
inhibition (D(1B) dopamine receptor (DRD5, Homo sapiens, UniProt P21918); binding, radioligand binding; 10 µM): 4.47%

For quick reference, copied from above (sample 3):
SYK (mouse); KiNativ ADP probe; mouse brain tissue; 0.1 µM, probe site Lys1: 5.5%
PDK1 (mouse); probe labelling, KiNativ ADP probe; mouse brain lysate; 0.1 µM, LYS1 labelled site: 17.2%
SLK mouse; KiNativ profiling; mouse brain lysate; 1 µM, LYS1 site, together with: ADP acyl phosphate probe: -13.3%
